Measured values collected from several papers.
Values joined by “and” are separate records of one study, mostly repeats; a detail may differ. ± gives the spread as reported.
Cell line: MCF7

| Compound | assay | setting | how to read | quantity | result |
| --- | --- | --- | --- | --- | --- |
| C/C1=C/C(=O)O[C@@H]2C[C@@H](CC[C@H](C)/C=C\C=C\CC1)O[C@@](OCCc1ccccc1)([C@@H]1CSC(=O)N1)C2 |  | concentration not given | baseline: 1 | antiproliferative activity fold increase | 4.8 fold |
| CC(=NNC(=O)c1cccc(C)c1)c1ccc(NC(=O)Cn2c(=O)c3c(ncn3C)n(C)c2=O)cc1 | qRT-PCR, measured: TNF-alpha | 4.85 µM, 24 h | baseline: untreated | mRNA level | 0.672 fold change |
| CC[C@@H](C)[C@@H](NC(=O)[C@@H](Cc1c[nH]c2ccccc12)NC(=O)[C@@H](CCCNC(=N)N)NC(=O)[C@H](CCC(N)=O)NC(=O)[C@@H]1CCCN1C(=O)[C@H](CCCNC(=N)N)NC(=O)[C@H](CCCNC(=N)N)NC(=O)[C@H](CCCNC(=N)N)NC(=O)[C@H](CCC(N)=O)NC(=O)[C@H](CCCNC(=N)N)NC(=O)[C@H](CCCNC(=N)N)NC(=O)[C@H](CCCCN)NC(=O)[C@H](CCCCN)NC(=O)[C@H](CCCNC(=N)N)NC(=O)CN)C(=O)N[C@H](CCSC)C(=O)N[C@H](Cc1ccc(O)cc1)C(=O)N[C@H](Cc1ccccc1)C(N)=O | MTT |  |  | sublethal dose | 2 µM |
| CC(C)N1CCC(NC2CCN(c3cccc(-c4cc5cc(F)ccc5[nH]4)c3)CC2)CC1 |  |  |  | CC50 | 6.34 µM |
| C[C@H]1[C@H](C)CC[C@]2(C(=O)O)CC[C@]3(C)C(=CC[C@@H]4[C@@]5(C)CC[C@H](O)C(C)(C)[C@@H]5CC[C@]43C)[C@H]12 | cell growth, MTT | 25 µg/mL, 48 h |  | cell survival | 54.97 ± 0.2% |
| COc1ccc(-n2nc(C(C)=O)s/c2=N\N=C(/C)c2ccc(NC(C)=O)cc2)cc1 |  | 10 µM |  | viability | 6.73% |
| CC(C)=CCc1c(O)cc(O)cc1-c1cc2ccc(O)c(CC=C(C)C)c2o1 | cell growth, MTT | 50 µg/mL, 48 h |  | cell survival | 54.37 ± 0.41% |
| C[C@]12CC[C@H](O)C[C@H]1CC[C@@H]1[C@@H]2CC[C@]2(C)[C@@H](c3ccc(=O)oc3)CC[C@]12O | RT-qPCR, measured: GREB1 | 50 nM, 48 h, unit not given, together with: estradiol | baseline: untreated | mRNA level | 0.588 and 0.729 and 0.839 |
| COc1c(CCC[P+](c2ccccc2)(c2ccccc2)c2ccccc2)cc2c(c1OC)OCO2.[I-] | SRB |  |  | LC50 | -4.06 log M |
| O=C1CCCCC1=C1Sc2nc3ccc(S(=O)(=O)N4CCCC4)cc3nc2S1 | RT-qPCR, measured: Bax | concentration not given | baseline: untreated | mRNA level | 3.79 fold |
| O=c1ccc2cc(O)ccc2[nH]1 |  | 72 h |  | IC50 | > 200 µM |
| Oc1cc(O)cc(-c2cc3ccc(O)cc3o2)c1 | cell growth, MTT | 25 µg/mL, 48 h |  | cell survival | 67.48 ± 0.61% |
| O=C(Oc1ccc(F)cc1)[c-]1cccc1.[Fe+2].c1cc[cH-]c1 | MTT | 72 h |  | IC50 | no effect |
| COc1cc(CCC[P+](c2ccccc2)(c2ccccc2)c2ccccc2)c(OC)c2c1OCO2.[I-] | SRB |  |  | GI50 | -5.74 log M |
| N.N.[Cl][Pt][Cl] |  | dark | baseline: IC50 MCF-10A over IC50 MCF7 | selectivity ratio | 1.7 |
| CCN(CC)c1ccc(C=NNC(=O)CSc2nc3ccccc3c(=O)n2Cc2ccc(S(N)(=O)=O)cc2)c(O)c1 | NCI five-dose screen |  |  | CC50 | > 100 µM |
| Nc1ncc(-c2nc(N3CCOCC3)nc(N3CCOCC3)n2)c(C(F)F)n1 |  | 72 h |  | GI50 | 0.022 µM |
| CN1CCN(C2(CNC3CCN(c4cccc(-c5cc6cc(F)ccc6[nH]5)c4)CC3)CCC2)CC1 |  |  |  | GI50 | 1.24 µM |
| N#Cc1c[nH]cc1-c1cccc2c1OC(F)(F)O2 | qRT-PCR | concentration not given, 4 h |  | basal RARβ2 mRNA level | decreased |

Repeated from above:
| Compound | assay | setting | how to read | quantity | result |
| --- | --- | --- | --- | --- | --- |
| N.N.[Cl][Pt][Cl] |  | dark | baseline: IC50 MCF-10A over IC50 MCF7 | selectivity ratio | 1.7 |
| O=c1ccc2cc(O)ccc2[nH]1 |  | 72 h |  | IC50 | > 200 µM |
